# Measurements pooled from the literature.
# Organism: Bacillus subtilis
Compound,assay,test system,setting,MIC
C/C(=C\c1ccc(O)cc1)C(=O)Nc1ccc(C(=O)N[C@@H](Cc2c[nH]nn2)C(=O)Nc2ccc(C(=O)Nc3ccc(C(=O)Nc4ccc(C(=O)O)cc4)c(O)c3)cc2)cc1,broth microdilution,DSM 10,,2 µg/mL
CN[C@H](CC(C)C)C(=O)N[C@H]1C(=O)N[C@@H](CC(N)=O)C(=O)N[C@H]2C(=O)N[C@H]3C(=O)N[C@H](C(=O)N[C@H](C(=O)NCc4cn(CCCCC(=O)N[C@H](C(=O)N[C@@H](CCN)C(=O)N[C@H]5CCNC(=O)[C@H]([C@@H](C)O)NC(=O)[C@H](CCN)NC(=O)[C@H](CCN)NC(=O)[C@H](CC(C)C)NC(=O)[C@@H](CC(C)C)NC(=O)[C@H](CCN)NC5=O)[C@@H](C)O)nn4)c4cc(O)cc(O)c4-c4cc3ccc4O)[C@H](O)c3ccc(c(Cl)c3)Oc3cc2cc(c3O[C@@H]2O[C@H](CO)[C@@H](O)[C@H](O)[C@H]2O[C@H]2C[C@](C)(N)[C@H](O)[C@H](C)O2)Oc2ccc(cc2Cl)[C@H]1O,broth microdilution,"168, cation-adjusted Mueller-Hinton broth","20 to 24 h, 37 °C, 0.002% polysorbate 80",0.25 µg/mL
COc1c(NC(=O)c2ccc(NC(=O)c3ccc(NC(=O)[C@H](Cc4c[nH]nn4)NC(=O)c4ccc(NC(=O)/C(C)=C/c5ccc(O)cc5)cc4)cc3)c(OC)c2O)ccc(C(=O)O)c1O,"microbial growth, broth dilution",DSM10,,0.125 µg/mL
CC[C@H]1OC(=O)[C@H](C)[C@@H](OC(=O)Cc2ccc(N(C)C)cc2)[C@H](C)[C@@H](O[C@@H]2O[C@H](C)C[C@H](N(C)C)[C@H]2O)[C@](C)(OC)C[C@@H](C)C(=O)[C@H](C)[C@@H](O)[C@]1(C)O,microbial growth,DSM402,,8 µg/mL
COc1c(NC(=O)c2ccc(NC(=O)c3ccc(NC(=O)[C@H](Cc4c[nH]nn4)NC(=O)c4ccc(NC(=O)/C(C)=C/c5ccc(O)cc5)cc4)cc3)cc2O)ccc(C(=O)O)c1O,broth microdilution,DSM 10,,4 µg/mL
C#CCOc1ccc(CN[C@@]2(C)C[C@H](O[C@H]3[C@H](Oc4c5cc6cc4Oc4ccc(cc4Cl)[C@@H](O)[C@@H](NC(=O)[C@@H](CC(C)C)NC)C(=O)N[C@@H](CC(N)=O)C(=O)N[C@H]6C(=O)N[C@H]4C(=O)N[C@H](C(=O)N[C@H](C(=O)O)c6cc(O)cc(O)c6-c6cc4ccc6O)[C@H](O)c4ccc(c(Cl)c4)O5)O[C@H](CO)[C@@H](O)[C@@H]3O)O[C@@H](C)[C@H]2O)cc1OC,broth microdilution,"168, cation-adjusted Mueller-Hinton broth","20 to 24 h, 37 °C, 0.002% polysorbate 80",0.5 µg/mL
CC[C@H]1OC(=O)[C@H](C)[C@@H](OC(=O)Cc2c(F)cc([N+](=O)[O-])cc2F)[C@H](C)[C@@H](O[C@@H]2O[C@H](C)C[C@H](N(C)C)[C@H]2O)[C@](C)(OC)C[C@@H](C)C(=O)[C@H](C)[C@@H](O)[C@]1(C)O,microbial growth,DSM402,,0.1 µg/mL
CN[C@H](CC(C)C)C(=O)N[C@H]1C(=O)N[C@@H](CC(N)=O)C(=O)N[C@H]2C(=O)N[C@H]3C(=O)N[C@H](C(=O)N[C@H](C(=O)O)c4cc(O)cc(O)c4-c4cc3ccc4O)[C@H](O)c3ccc(c(Cl)c3)Oc3cc2cc(c3O[C@@H]2O[C@H](CO)[C@@H](O)[C@H](O)[C@H]2O[C@H]2C[C@](C)(NCc3ccc(OCc4cn(CC(=O)N[C@H](C(=O)N[C@@H](CCN)C(=O)N[C@H]5CCNC(=O)[C@H]([C@@H](C)O)NC(=O)[C@H](CCN)NC(=O)[C@H](CCN)NC(=O)[C@H](CC(C)C)NC(=O)[C@@H](CC(C)C)NC(=O)[C@H](CCN)NC5=O)[C@@H](C)O)nn4)c(OC)c3)[C@H](O)[C@H](C)O2)Oc2ccc(cc2Cl)[C@H]1O,broth microdilution,"168, cation-adjusted Mueller-Hinton broth","20 to 24 h, 37 °C, 0.002% polysorbate 80",0.25 µg/mL
CCCCCCCCCc1nc2cc(Cl)ccc2c(=O)n1CCN,,168,,4.4 µg/mL
CC[C@H]1OC(=O)[C@H](C)[C@@H](OC(=O)CC2CCCCC2)[C@H](C)[C@@H](O[C@@H]2O[C@H](C)C[C@H](N(C)C)[C@H]2O)[C@](C)(OC)C[C@@H](C)C(=O)[C@H](C)[C@@H](O)[C@]1(C)O,microbial growth,DSM402,,1 µg/mL

# Repeated from above:
Compound,assay,test system,setting,MIC
COc1c(NC(=O)c2ccc(NC(=O)c3ccc(NC(=O)[C@H](Cc4c[nH]nn4)NC(=O)c4ccc(NC(=O)/C(C)=C/c5ccc(O)cc5)cc4)cc3)c(OC)c2O)ccc(C(=O)O)c1O,"microbial growth, broth dilution",DSM10,,0.125 µg/mL
